Experimental data of several laboratories.
Parts stem from different laboratories: compare values within a part only. Changes are numbered by the printed parent chain.

Block 1
Target: Ras GTPase-activating protein-binding protein 1, full length (G3BP1, Homo sapiens, UniProt Q13283)
UniProt Q13283, sequence (whole entry, looked up): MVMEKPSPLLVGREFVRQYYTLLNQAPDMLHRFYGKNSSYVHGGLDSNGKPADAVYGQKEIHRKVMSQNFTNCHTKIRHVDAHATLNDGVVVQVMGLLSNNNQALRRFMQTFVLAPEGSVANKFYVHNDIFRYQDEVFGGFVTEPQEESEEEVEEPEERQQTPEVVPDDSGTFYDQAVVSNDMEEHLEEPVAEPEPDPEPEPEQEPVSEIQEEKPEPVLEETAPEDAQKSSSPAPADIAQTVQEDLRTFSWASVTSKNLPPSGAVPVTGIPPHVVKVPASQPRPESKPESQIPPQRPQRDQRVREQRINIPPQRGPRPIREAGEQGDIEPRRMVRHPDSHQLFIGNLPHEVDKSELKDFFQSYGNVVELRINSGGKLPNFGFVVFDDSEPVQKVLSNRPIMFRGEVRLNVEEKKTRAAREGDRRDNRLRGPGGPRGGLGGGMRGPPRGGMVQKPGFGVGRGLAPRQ
Technique: RNA Bind-n-Seq
Molecule type: RNA
Medium: in vitro
Tested at: 200 nM
Notes: whole 134-nt RNA, ends assumed
Added: 150 mM KCl
Relative to: input library
Reading: higher = stronger binding
All sequences stand within: GGGAGUUCUACAGUCCGACGAUC … UGGAAUUCUCGGGUGUCAAGG
Oligonucleotide | log2 enrichment
CAAGUCCUGUGCUACACAUCGUAUGUACCGAAUCGGAAAAAGGAAAAAAAGGAGGAAAGUAUUAUGUUACGCCGUUCGGAUCUGCACUUC | -0.918
UCCUGUGCUACACAUCGUAUGUACCGAAUCGGGGCCCCCCGGCCCCCCGGCCCCCCGGGGAAAGUAUUAUGUUACGCCGUUCGGAUCUGC | -0.0604
UAACUUUAGAGGAGGAUCUGAUGGAUAUGGCAGUGGACGUGGAUUUGGGGAUGGCUAUAAUGGGUAUGGAGGAUGACCUGGAGGUGGCAA | 0.226
AGUCCUGUGCUACACAUCGUAUGUACCGAAUCGGGGUUUUUGGGGUGGGGAAAGGGGAAAGUAUUAUGUUACGCCGUUCGGAUCUGCACU | 0.315
AAGUCCUGUGCUACACAUCGUAUGUACCGAAUCGGGUUUUUGGUUUUUGGUUUUUGGAAAGUAUUAUGUUACGCCGUUCGGAUCUGCACU | -1.28
GUCCUGUGCUACACAUCGUAUGUACCGAAUCGGGAAAAAGGGUUUGGGUUUUUUUGGGAAAGUAUUAUGUUACGCCGUUCGGAUCUGCAC | -0.447
CAAGUCCUGUGCUACACAUCGUAUGUACCGAAUCGGGAAAAAGGGAAAGGGUGGGAAAGUAUUAUGUUACGCCGUUCGGAUCUGCACUUC | 0.77
GUCCUGUGCUACACAUCGUAUGUACCGAAUCGGGGUUUUUUUGGGGAAAGGGGUGGGGAAAGUAUUAUGUUACGCCGUUCGGAUCUGCAC | 0.0617
CUCAAGUCCUGUGCUACACAUCGUAUGUACCGAAUCGGGCGGGGCGGGGCGGGAAAGUAUUAUGUUACGCCGUUCGGAUCUGCACUUCCA | 1.49
GUCCUGUGCUACACAUCGUAUGUACCGAAUCGGGAAAAAGGGUUUUUUUGGGUUUGGGAAAGUAUUAUGUUACGCCGUUCGGAUCUGCAC | -0.672

Block 2
Target: ABI1, truncated, D143A, DHFR fusion (Arabidopsis thaliana)
Technique: DHFR PCA, deep sequencing
Medium: yeast
Notes: methotrexate growth selection, single substitutions
Added: (+)-ABA 2500 µM
Relative to: wild-type fitted maximum
Reading: higher = stronger binding
Parent: PYL1, truncated, DHFR fusion (Arabidopsis thaliana); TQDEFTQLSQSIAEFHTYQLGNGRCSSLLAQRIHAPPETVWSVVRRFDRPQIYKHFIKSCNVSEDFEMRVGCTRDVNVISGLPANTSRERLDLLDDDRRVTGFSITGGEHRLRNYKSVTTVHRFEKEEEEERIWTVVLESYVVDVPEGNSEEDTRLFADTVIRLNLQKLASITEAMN; partner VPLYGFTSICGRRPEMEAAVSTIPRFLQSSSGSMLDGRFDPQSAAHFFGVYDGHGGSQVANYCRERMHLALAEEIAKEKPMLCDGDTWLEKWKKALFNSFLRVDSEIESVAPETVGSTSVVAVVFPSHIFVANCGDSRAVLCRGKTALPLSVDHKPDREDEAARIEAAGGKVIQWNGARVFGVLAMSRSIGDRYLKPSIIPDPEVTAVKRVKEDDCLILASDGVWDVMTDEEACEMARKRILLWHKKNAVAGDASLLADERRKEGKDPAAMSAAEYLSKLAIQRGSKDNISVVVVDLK
Change | relative binding score [%]
E174R | 89.6
K58N | 91.7
R90V | 96.7
S117K | 29
F47Y | 85.3
L156T | 97.9
L94P | -0.669
R99Q | 93.9
L94F | 106
H55Q | 95.9
V142T | 95.9

Block 3
Target: RING finger protein unkempt homolog, zinc fingers 1-6, GST-SBP tag (UNK, Homo sapiens, UniProt Q9C0B0, residues 30-357)
Technique: RNA Bind-n-Seq
Molecule type: RNA
Medium: in vitro
Tested at: not given
Notes: RNA with constant flanks, human-mouse chimeric sites, ends assumed
Relative to: input RNA pool
Reading: higher = stronger binding
All sequences stand within: GGGAGUUCUACAGUCCGACGAUC … CAACAGAGGAUUGAGCAUCA
Residues (chain): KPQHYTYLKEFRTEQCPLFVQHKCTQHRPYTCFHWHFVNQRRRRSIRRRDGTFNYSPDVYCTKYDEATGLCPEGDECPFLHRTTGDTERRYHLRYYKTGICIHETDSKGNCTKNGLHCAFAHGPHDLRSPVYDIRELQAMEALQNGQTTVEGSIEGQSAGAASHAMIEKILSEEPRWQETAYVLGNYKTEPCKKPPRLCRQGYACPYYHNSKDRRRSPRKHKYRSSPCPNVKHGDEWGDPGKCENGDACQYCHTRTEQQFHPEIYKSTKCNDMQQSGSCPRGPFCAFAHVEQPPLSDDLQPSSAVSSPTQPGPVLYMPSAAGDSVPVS
Oligonucleotide | bound/input enrichment [ratio]
UAAGUCCUGUGCCAGCACUUCGCUCAUUAUAUUUUAAAUUCUGGACCAAUAGUGUUUGUUUCCUGAUUAUUGUAUCCAAUACUUUAUCUAGUAUGUAACUCACUCUUACUGAUAAUAAAA | 3.52
GGUGGGGUGGUCAUUGCCGUUUGAGCUGCUGAUUUUCAUGAGUCGCCCAUUCAGAACUCGUGUAGGGUUGACAAUGUGGGGGGGUGGGAAAUCUAGCUUAUUCUUUUAUUUUCAAGUCCA | 5.43
AGAAUCUUGGGACUGUUUUACUUAAUUGGUCAUUGGUAGCUUAACAAGCAUGGAGAUAAGAUUAGAAAUCUUGACAUCAACAGGUAUUAAGCAGAAAAAACCAUGGCCACGUGUCUCCUG | 0.11
UUCAAAGAAAAGGGCAGUUCAUAAAUAUCAUAAGUAACUCUGGGGGAGGGAAAUUCUGUUCUUUUGUUUAAUUUUCCCCCAAAUGAAACCAACAUGCGUGUUGAAGAACUGAGAAAAAAU | 0.275
GAAAGAGAACUAAAGCAACUAAUAGAGAAGAGGAUUGGCAAAGAGAAAUUUCAUAGAAAACUAGGAUUUAUUAGCAAACAUGAGUUAUAUUCCAGAGCGUCUCAGAAACCCCAGCCAAAC | 12.4
GGACAUCUGUCAAAUUGUUAUGUUCCUGUGAAACAAGUGAACACUCUGAUACACUUCAUCUGCUUGUACAUCUGUAUGAUAGAGAAACAGAAAUCUAAAUAUAUUUACAAUGUGUCACUU | 0.246
AUUCCGAUUAUGGACACCGGUGAAAACCCAGAGGUGCCCUUCCCCCGGGACAUGAUUGACUUAGAGGCCAAUUUUGAGAAGAUUGAAAAUGAACUGAAGGAAAUCAACACUAACCAGGAA | 0.0909
AAAGUGAUGACUAUGUUUGUCCAACGACAGGUAUUUUCUGAGAACAAAGAUGAGAUUGCGUUAGUCCUCUAUGGCACAGAUGGCACUGAUAAUGCCCUUUCUGGUGGGGACCAGUAUCAG | 0.127
UUUGUUUUUAUGCUAAGCACGCGUGCUGGUGGUCUGGGCAUCAAUCUUGCAACUGCUGAUGUAGUCAUUUUAUAUGACUCAGAUUGGAAUCCGCAAGUUGAUCUUCAGGCUAUGGACCGU | 0.125
GGGACUGAUUCAUCCCAAGGACAGGCAACCCCAUUUGGUGUUUGGAAUGAUGACAGUAUGGAAGGGCCUAGUCAAAAUGUUGAAGCUGAGUCAAUUCAGGAUGCCAUGAGUAUGGAAGAG | 0.284
GCGGCAGAAUCAUGGAGGACAUAAUGCAGCUCCCCAAAGCGCGCGUCAACGCCAGCAUGCUAGCUCAAUUCAUCGACCGGCCCGUGUGCUUCGUGGGGAAGCUGGAAAAGAUUCAUCCCA | 0.095

Block 4
Target: CCND3, cyclin fold, Cln2 fusion (human)
Technique: yeast growth competition, sequencing
Medium: yeast
Notes: weak parent motif
Relative to: not given
Reading: higher = stronger binding
Parent: SGO1 docking peptide (human); PLAKRALKYTDEK; partner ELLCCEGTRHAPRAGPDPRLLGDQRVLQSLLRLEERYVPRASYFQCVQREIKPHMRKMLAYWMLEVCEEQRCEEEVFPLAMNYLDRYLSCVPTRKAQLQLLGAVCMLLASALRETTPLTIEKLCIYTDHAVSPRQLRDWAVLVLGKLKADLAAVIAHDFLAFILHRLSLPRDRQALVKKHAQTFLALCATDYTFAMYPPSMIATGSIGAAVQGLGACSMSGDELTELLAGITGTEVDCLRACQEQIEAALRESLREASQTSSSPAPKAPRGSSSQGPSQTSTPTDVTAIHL
Change | normalised enrichment score
PLAKAALKYTDEK [R5A] | 0.00451
PLAKRALKYTAEK [D11A] | -0.0419
PAAKRALKYTDEK [L2A] | 0.22
PLAKRALKYTDEA [K13A] | -0.0119
PLAKRAAKYTDEK [L7A] | 0.0884
ALAKRALKYTDEK [P1A] | -0.0376

Other studies, line by line
Molecule | target | assay | test system | conditions | how to read | endpoint | value
PhoQ, residues 284 288 289 292 302 303 SSYNSA | PhoP, residues 12 14 15 18 19 AQCLL (Escherichia coli, UniProt P23836) | Sort-seq, item: YFP reporter | E. coli | PhoQ-PhoP variant library, added: 10 µM Mg2+ | relative to: high Mg2+ state, higher = stronger signaling | fold induction | 2.59

For quick reference, copied from above (block 2):
Change | relative binding score [%]
L94F | 106
L94P | -0.669
L156T | 97.9
E174R | 89.6
R99Q | 93.9
